Experimental data of several laboratories.
Parts stem from different laboratories: compare values within a part only.

Block 1
Target: RNA binding protein fox-1 homolog 2, RRM domain, GST-SBP tag (RBFOX2, Homo sapiens, UniProt O43251-10, residues 100-194)
Method: RNA Bind-n-Seq
Form: RNA
Medium: in vitro
Concentration: 365 nM
Notes: natural RNA segment, single round, ends assumed
Relative to: no-protein control
Reading: higher = stronger binding
`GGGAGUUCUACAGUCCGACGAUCGAAGGCCCAGCCCUUGACUCUGAGACACAUUUGAAUUUUUUCUUUCCCAUCAAAUGGCAUUAACAAGAUUGGGCAAAGAUGAGUCCCUCAAAUUUCUGUGUUUUUUGUUUUGGAAUUCUCGGGUGCCAA`: “RBNS enrichment (R)” 0.522.
`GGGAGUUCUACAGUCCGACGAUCGACUGGCAGCUUUUAUUUCAGUAUUAGCACAGCGUCUUGCCAGUGUUGGAGGCCAUGUAUUAUUUCAGUUCAACUGGAUGAAAUGUUAAAUAAACUCAGAAUGAAAAUAAUGGAAUUCUCGGGUGCCAA` — result for “RBNS enrichment (R)”: 1.05.
`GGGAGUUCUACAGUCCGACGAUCGCCCUGUGCCCCUCUGUCCGCCUCUUCACCGCUGGCAGAGGGCAGGCUGCAUGCAGUGGCGGCUGCUGGGCCCUGCCCAGCCCCAGGACUCUGCGCGAUAUCAAUACUGGUGGAAUUCUCGGGUGCCAA` — result for “RBNS enrichment (R)”: 1.28.
For `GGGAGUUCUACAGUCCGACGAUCUCUAUCUCACUUCACUGUGAGGGGAAGACCUUCUCAUGGGAACUCUCCAAAUACCAUUCAAGUGCCUCUUGUUGAAAGAUUCCUUCAUGGUGGAAGGGGGUGCAUGUAUGUGGAAUUCUCGGGUGCCAA`, “RBNS enrichment (R)” read 1.15.
Under “RBNS enrichment (R)”, `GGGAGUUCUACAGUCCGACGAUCAUUGUGAUAUUUUCUUAGUCUGUUCUGUUUUAUUUAAAAAAUAAAACUGCUGAUCAAGACAAGUGAAUGGAGUUUGUGAUCCAUUCAUGAGUUGCCACCCACAGUUUAGAUGGAAUUCUCGGGUGCCAA` is recorded as 0.375.
For `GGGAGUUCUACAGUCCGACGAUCUGUGACCCUGGUGUGACUAAGCAUCAGGGGUGGGGUUGUAUAAGUUCAAAAGUGUGAAAUGUCUGAAGAUCAUAUUUUUUAUACAGGUAUUUCAAUUAAAUGUUUUGGUAUGGAAUUCUCGGGUGCCAA`, “RBNS enrichment (R)” read 0.948.
For `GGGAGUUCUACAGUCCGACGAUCUCUGGUUUGGAUUUUUUUUUCCUUCUUUGUUUUAACAAAUGGAUCCAGGAUGGAUAAAUCCACCGAGAUAAGGGUUUUGGUCACUGUCUCCACCUCAGUUCCUCAGGGCUUGGAAUUCUCGGGUGCCAA`, “RBNS enrichment (R)” read 0.377.
For `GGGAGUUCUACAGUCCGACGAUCUUUCUUCCAAAGAGGCAAAAGCAGCUAGACUCGCUUACAGCACAUGCUUCGCUCCAUGGUAUGGGUGGACACCUACACUUGUCAGUAGCAGUCUUAAACUCCUCACUGCCUGGAAUUCUCGGGUGCCAA`, “RBNS enrichment (R)” read 0.407.
For `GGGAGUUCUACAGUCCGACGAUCGGAGUUGGCAAUACCUAGUUCUGCUUCUGAAACUGGAGUAUCAUUCUUUACAUAUUUAUAUGUAUGUUUUAAGUAGUCCUCCUGUAUCUAUUGUAUAUUUUUUUCUUAAUUGGAAUUCUCGGGUGCCAA`, “RBNS enrichment (R)” read 0.971.
`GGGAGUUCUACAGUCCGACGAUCAUCCACCUGCCUCUGCCCCCUGAUGCUGCCACCAUACCCAGCUGGUUUUAUCUUUUAAUGAUAACUUAGGUGCCCUUGGUGGGCUUUCCAAACCUGGUUACUCAACGUUAUGGAAUUCUCGGGUGCCAA` — result for “RBNS enrichment (R)”: 0.392.
`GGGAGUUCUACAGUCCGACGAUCGCAGACUGAUUCGAACACAAGGCAUCUGUGAGGGGAGUCCUCCCUCUUCAAAGCAUCUGUGUGAGGGGGUCUUCCCUCUUACAAGAAAGCUGUCUGUUGGGGGUUACAAGUGGAAUUCUCGGGUGCCAA`: “RBNS enrichment (R)” 0.519.
`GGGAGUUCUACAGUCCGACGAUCCAUCUGAAUAAUCAAUGUAAAUAUUUUCUUUCAAAGUUGUAAGUUUUCAUAUCAUGUGCUGUAAAGUUUUCCUAAAUGAGGCUUUAACGUAAACACUGGUGACAUAAACCUGGAAUUCUCGGGUGCCAA`: “RBNS enrichment (R)” 0.511.

Block 2
Target: Cyclic AMP-dependent transcription factor ATF-1, full length (ATF1, Homo sapiens, UniProt P18846, residues 1-271)
Method: protein-binding microarray
Form: hairpin DNA
Medium: in vitro
Concentration: not given
Notes: whole hairpin DNA, median over replicate spots
Relative to: not given
Reading: higher = stronger binding
All sequences stand within: GAGGCCG … CGGCCTCACACTC
Target sequence (chain): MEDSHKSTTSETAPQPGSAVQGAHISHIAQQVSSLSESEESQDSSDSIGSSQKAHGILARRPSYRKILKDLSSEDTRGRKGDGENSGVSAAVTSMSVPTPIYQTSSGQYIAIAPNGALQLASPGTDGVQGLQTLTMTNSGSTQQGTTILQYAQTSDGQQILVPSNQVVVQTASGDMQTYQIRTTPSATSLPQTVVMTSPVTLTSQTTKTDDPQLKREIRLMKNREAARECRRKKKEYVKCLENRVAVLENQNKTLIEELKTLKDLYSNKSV
With `ACCGCGTCGTGCCTCCTGGCACGACGCGGT (5mC at 9 10 15 29)` the median fluorescence was 3880 a.u.
`GCTAACGTCAGCCTCCTGGCTGACGTTAGC` gave a median fluorescence of 4370 a.u.
`GGTGACGTCAGCCTCCTGGCTGACGTCACC` has a median fluorescence of 19000 a.u.
With `GCTGACGTCGGCCTCCTGGCCGACGTCAGC (5mC at 16 28)` the median fluorescence was 5860 a.u.
`GCTGACGTCAGCCTCCTGGCTGACGTCAGC (5mC at 31)` gave a median fluorescence of 4420 a.u.
`ACGACGTCCGGCCTCCTGGCCGGACGTCGT (5mC at 9 15 28 35)` gave a median fluorescence of 3700 a.u.
For `GATGACCGCAGCCTCCTGGCTGCGGTCATC (5mC at 30)`, the median fluorescence was 3440 a.u.
The median fluorescence of `GCTGACGTCAGCCTCCTGGCTGACGTCAGC (5mC at 38)` is reported as 10200 a.u.
The median fluorescence of `GAGGACGTCAGCCTCCTGGCTGACGTCCTC` is reported as 4540 a.u.
For `ACGACCGCGTGCCTCCTGGCACGCGGTCGT (5mC at 9 15 29 35)`, the median fluorescence was 3720 a.u.
`GCTGCCGTCAGCCTCCTGGCTGACGGCAGC` gave a median fluorescence of 3680 a.u.
`GATCACGTCAGCCTCCTGGCTGACGTGATC` has a median fluorescence of 4940 a.u.
With `ACGCGGTCGTGCCTCCTGGCACGACCGCGT (5mC at 9 11 15 29 35)` the median fluorescence was 3550 a.u.
For `ACTGACGTCAGCCTCCTGGCTGACGTCAGT`, the median fluorescence was 8840 a.u.
`CGTGACGTCAGCCTCCTGGCTGACGTCACG (5mC at 36)` gave a median fluorescence of 18200 a.u.
`GCTGCGGTCAGCCTCCTGGCTGACCGCAGC (5mC at 12)` has a median fluorescence of 3380 a.u.

Block 3
Target: Histone acetyltransferase KAT6A, winged helix 2, GST fusion (KAT6A, Homo sapiens, UniProt Q92794, residues 85-181)
Method: protein binding microarray
Form: double-stranded DNA, one strand shown
Medium: in vitro
Concentration: not given
Notes: 8-mer, flanks averaged, mean of 2 arrays, mostly near background
Relative to: not given
Reading: higher = stronger binding
Construct (chain): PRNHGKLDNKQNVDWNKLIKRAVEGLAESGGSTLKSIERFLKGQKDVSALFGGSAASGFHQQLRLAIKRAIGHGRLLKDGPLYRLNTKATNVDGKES
For `AATTTGGG`, the E-score was -0.0723.
`AGGATGCC` gave an E-score of -0.139.
`GTTCGAAA` gave an E-score of 0.125.
`CATGTGGC` has an E-score of -0.00867.
The E-score of `GCTAAGCC` is reported as -0.0315.
`CCATACAG` gave an E-score of -0.168.
For `GGTAGTGA`, the E-score was 0.0444.
With `GACAGCCC` the E-score was -0.047.
`ATAGTTGA` gave an E-score of -0.0309.
The E-score of `ACCTGGAC` is reported as -0.0904.
For `AATCTCTA`, the E-score was -0.151.
`GGGGGAAC` gave an E-score of -0.062.
The E-score of `AACGTTCG` is reported as -0.00636.
`TAGGATCA` has an E-score of -0.0845.
`CTTAGACA` has an E-score of -0.0987.
`GCCGCTCA` has an E-score of -0.0404.
`CTGTGTCC` gave an E-score of 0.0989.

Block 4
Target: Sal-like protein 4, full length isoform A (SALL4, Homo sapiens, UniProt Q9UJQ4, residues 1-1053)
Sequence of UniProt Q9UJQ4 (whole entry, looked up): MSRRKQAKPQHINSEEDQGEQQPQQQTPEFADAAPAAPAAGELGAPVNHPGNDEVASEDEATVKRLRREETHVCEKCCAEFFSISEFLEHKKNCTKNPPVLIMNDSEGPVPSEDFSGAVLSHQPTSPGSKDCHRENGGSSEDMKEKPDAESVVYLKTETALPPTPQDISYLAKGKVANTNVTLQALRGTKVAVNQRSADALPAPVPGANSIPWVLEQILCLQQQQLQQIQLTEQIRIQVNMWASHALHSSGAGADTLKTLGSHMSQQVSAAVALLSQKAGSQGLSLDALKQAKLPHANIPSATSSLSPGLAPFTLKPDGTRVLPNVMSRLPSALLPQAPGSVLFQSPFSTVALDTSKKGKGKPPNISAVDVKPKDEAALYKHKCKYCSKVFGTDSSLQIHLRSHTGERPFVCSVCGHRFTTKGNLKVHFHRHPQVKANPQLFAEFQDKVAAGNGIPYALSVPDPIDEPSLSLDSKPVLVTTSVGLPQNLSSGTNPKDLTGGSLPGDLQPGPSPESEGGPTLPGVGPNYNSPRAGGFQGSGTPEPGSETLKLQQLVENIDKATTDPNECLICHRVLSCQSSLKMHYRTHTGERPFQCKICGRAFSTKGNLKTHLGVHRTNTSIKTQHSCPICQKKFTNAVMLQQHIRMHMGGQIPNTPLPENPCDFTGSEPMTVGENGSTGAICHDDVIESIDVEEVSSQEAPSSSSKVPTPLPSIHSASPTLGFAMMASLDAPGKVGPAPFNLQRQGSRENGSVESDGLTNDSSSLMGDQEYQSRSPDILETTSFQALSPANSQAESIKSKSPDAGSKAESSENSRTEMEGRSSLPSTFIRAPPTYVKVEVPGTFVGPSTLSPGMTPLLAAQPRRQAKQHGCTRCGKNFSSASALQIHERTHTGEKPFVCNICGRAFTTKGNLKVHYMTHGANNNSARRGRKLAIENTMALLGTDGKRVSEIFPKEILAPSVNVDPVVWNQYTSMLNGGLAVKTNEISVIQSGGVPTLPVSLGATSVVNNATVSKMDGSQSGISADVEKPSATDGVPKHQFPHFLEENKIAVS
Method: universal PBM
Form: double-stranded DNA, one strand shown
Medium: in vitro
Concentration: 600 nM
Notes: 8-mer, flanks averaged, mean of replicates
Reading: higher = stronger binding
`CGAAGGAG` has an E-score of -0.213.
With `AAGCGGAC` the E-score was -0.27.
`GAGGGGAC` has an E-score of -0.325.
With `GGCCTCGA` the E-score was -0.261.
With `CGGAACAC` the E-score was -0.0772.
`ATCAGAAC` has an E-score of 0.0535.
`ATGCCGAC` gave an E-score of -0.118.
`AAAATTCC` gave an E-score of 0.238.
For `GCAACTGC`, the E-score was -0.0951.
`GCGTTCCA` has an E-score of -0.17.
`CTTATCTA` gave an E-score of 0.335.
For `AAAGTAAA`, the E-score was 0.344.
The E-score of `AACATTGC` is reported as 0.0611.
With `CTTTAGTA` the E-score was 0.0218.
With `AGGAGTGG` the E-score was -0.17.
`ACTCAGGC` has an E-score of -0.0639.
For `CTGAGCCC`, the E-score was -0.236.
For `AAGCTGTG`, the E-score was -0.0127.
With `GCCAATAA` the E-score was 0.236.

A few entries again (block 2):
The median fluorescence of `GAGGACGTCAGCCTCCTGGCTGACGTCCTC` is reported as 4540 a.u.
For `ACGACCGCGTGCCTCCTGGCACGCGGTCGT (5mC at 9 15 29 35)`, the median fluorescence was 3720 a.u.
`GCTGCCGTCAGCCTCCTGGCTGACGGCAGC` gave a median fluorescence of 3680 a.u.
`GATCACGTCAGCCTCCTGGCTGACGTGATC` has a median fluorescence of 4940 a.u.
With `ACGCGGTCGTGCCTCCTGGCACGACCGCGT (5mC at 9 11 15 29 35)` the median fluorescence was 3550 a.u.
